Measured values from different studies.
Each line is one published result; not all experiments were run side by side. Several values in a cell are separate wells, animals, samples, runs or records. Numbers after ± are the reported error.

SMILES | target or system | assay | system | conditions | how to read | endpoint | result
Cn1cc(-c2ccc(-c3cncc(Cl)c3N3CCC4(CCNC4=O)CC3)cc2)cn1 | COLO 205 | gene expression, microarray, measured: IFI6 mRNA | – | concentration not given, 6 h | baseline: untreated cells | log2 fold change | 2.45
O=C(O)c1ccc2c(c1)nc(NCc1ccccc1)c1ncncc12 | DYRK and HIPK kinases | enzyme activity, inhibitor, eight-kinase enzymatic panel | – | 1 µM, percent of control below 10 | – | number of kinases inhibited | 0
COc1cccc(Nc2nc(NCC3CCCO3)c3ccccc3n2)c1.Cl (stereo not shown) | Renilla luciferase reporter mRNA | in vitro translation, inhibitor | Trypanosoma cruzi translation extract | 30 µM | – | inhibition | 52.2%
c1coc(-c2n[nH]cc2-c2ccnc3ccccc23)c1 | KSP1 (Candida albicans) | kinase binding, MIB/MS competition | Candida albicans lysate | 10 µM | baseline: DMSO | log2 fold change | 0.02
COc1cccc(CCNc2nc3cc(C(=O)O)ccc3c3cnccc23)c1 | DYRK and HIPK kinases | enzyme activity, inhibitor, eight-kinase enzymatic panel | – | 1 µM, percent of control below 10 | – | number of kinases inhibited | 1
Fc1ccccc1Nc1nc(NCC2CCCO2)c2ccccc2n1 (stereo not shown) | Renilla luciferase reporter mRNA | in vitro translation, inhibitor | Trypanosoma cruzi translation extract | 40 µM | – | inhibition | 79%
O=C(O)c1ccc2c(c1)nc(Nc1ccccc1)c1ncncc12 | DYRK and HIPK kinases | enzyme activity, inhibitor, eight-kinase enzymatic panel | – | 1 µM, percent of control below 10 | – | number of kinases inhibited | 2
O=C(O)c1cc(O)c2c(c1)C(=O)c1cccc(O[C@@H]3O[C@H](CO)[C@@H](O)[C@H](O)[C@H]3O)c1C2=O | HK-2 co-cultured with HepaRG | MTT | – | 16.67 µM, 48 h | baseline: untreated control | cell viability | 91 ± 3.49%
Cl.OCCNc1nc(Nc2ccccc2)nc2ccccc12 | Renilla luciferase reporter mRNA | in vitro translation, inhibitor | Trypanosoma cruzi translation extract | 40 µM | – | inhibition | 77.8%
O=C(O)c1ccc2c(c1)nc(Nc1ccc(Cl)cc1)c1ncncc12 | DYRK and HIPK kinases | enzyme activity, inhibitor, eight-kinase enzymatic panel | – | 1 µM, percent of control below 10 | – | number of kinases inhibited | 5
C[n+]1cccc2cc(C=NNC(=O)c3ccc4ccc5ccc(C(=O)NN=Cc6ccc7c(ccc[n+]7C)c6)nc5c4n3)ccc21.[I-].[I-] | MYC parallel G4 DNA | FRET melting | – | 1 µM, DNA 0.2 µM, together with: duplex DNA competitor 10 µM | – | ΔTm | 15.3 ± 1 °C
CCNC(=O)/C=C/c1cccc(Br)c1 | endogenous leucine transporters, hamster | L-[14C]leucine uptake | CHO-BC cells | 30 µM, 6 min, 37 °C, with sodium | – | L-leucine uptake | 45.1 nmol/mg protein and 46.4 nmol/mg protein and 42.2 nmol/mg protein
Cl.Fc1ccc(Nc2nc(NCC3CCCO3)c3ccccc3n2)cc1 (stereo not shown) | Renilla luciferase reporter mRNA | in vitro translation, inhibitor | Trypanosoma cruzi translation extract | 40 µM | – | inhibition | 81.1%
Oc1ccccc1-c1n[nH]cc1-c1ccnc2ccccc12 | orf19.4518 Candida albicans | kinase binding, MIB/MS competition | Candida albicans lysate | 10 µM | baseline: DMSO | log2 fold change | 0.49
O=C(NN=Cc1ccc(C[n+]2ccccc2)cc1)c1ccc2ccc3ccc(C(=O)NN=Cc4ccc(C[n+]5ccccc5)cc4)nc3c2n1.[Br-].[Br-] | myc22 MYC G4-DNA parallel | FRET melting | – | 1 µM, K1 buffer, DNA 0.2 µM | – | ΔTm | 30.5 ± 0.3 °C
COc1c(O)c(C)cc2c1C(=O)c1c(cc(O)c(O)c1O)C2=O | HK-2 co-cultured with HepaRG | MTT | – | 16.67 µM, 48 h | baseline: untreated control | viability | 87.1 ± 5.84%

Excerpt of the above:
SMILES | target or system | assay | system | conditions | how to read | endpoint | result
COc1cccc(CCNc2nc3cc(C(=O)O)ccc3c3cnccc23)c1 | DYRK and HIPK kinases | enzyme activity, inhibitor, eight-kinase enzymatic panel | – | 1 µM, percent of control below 10 | – | number of kinases inhibited | 1
Fc1ccccc1Nc1nc(NCC2CCCO2)c2ccccc2n1 (stereo not shown) | Renilla luciferase reporter mRNA | in vitro translation, inhibitor | Trypanosoma cruzi translation extract | 40 µM | – | inhibition | 79%
